Experimental data pooled from the literature.
A part holds a random share of what one study measured.
Sequence of UniProt P35590 (whole entry, looked up): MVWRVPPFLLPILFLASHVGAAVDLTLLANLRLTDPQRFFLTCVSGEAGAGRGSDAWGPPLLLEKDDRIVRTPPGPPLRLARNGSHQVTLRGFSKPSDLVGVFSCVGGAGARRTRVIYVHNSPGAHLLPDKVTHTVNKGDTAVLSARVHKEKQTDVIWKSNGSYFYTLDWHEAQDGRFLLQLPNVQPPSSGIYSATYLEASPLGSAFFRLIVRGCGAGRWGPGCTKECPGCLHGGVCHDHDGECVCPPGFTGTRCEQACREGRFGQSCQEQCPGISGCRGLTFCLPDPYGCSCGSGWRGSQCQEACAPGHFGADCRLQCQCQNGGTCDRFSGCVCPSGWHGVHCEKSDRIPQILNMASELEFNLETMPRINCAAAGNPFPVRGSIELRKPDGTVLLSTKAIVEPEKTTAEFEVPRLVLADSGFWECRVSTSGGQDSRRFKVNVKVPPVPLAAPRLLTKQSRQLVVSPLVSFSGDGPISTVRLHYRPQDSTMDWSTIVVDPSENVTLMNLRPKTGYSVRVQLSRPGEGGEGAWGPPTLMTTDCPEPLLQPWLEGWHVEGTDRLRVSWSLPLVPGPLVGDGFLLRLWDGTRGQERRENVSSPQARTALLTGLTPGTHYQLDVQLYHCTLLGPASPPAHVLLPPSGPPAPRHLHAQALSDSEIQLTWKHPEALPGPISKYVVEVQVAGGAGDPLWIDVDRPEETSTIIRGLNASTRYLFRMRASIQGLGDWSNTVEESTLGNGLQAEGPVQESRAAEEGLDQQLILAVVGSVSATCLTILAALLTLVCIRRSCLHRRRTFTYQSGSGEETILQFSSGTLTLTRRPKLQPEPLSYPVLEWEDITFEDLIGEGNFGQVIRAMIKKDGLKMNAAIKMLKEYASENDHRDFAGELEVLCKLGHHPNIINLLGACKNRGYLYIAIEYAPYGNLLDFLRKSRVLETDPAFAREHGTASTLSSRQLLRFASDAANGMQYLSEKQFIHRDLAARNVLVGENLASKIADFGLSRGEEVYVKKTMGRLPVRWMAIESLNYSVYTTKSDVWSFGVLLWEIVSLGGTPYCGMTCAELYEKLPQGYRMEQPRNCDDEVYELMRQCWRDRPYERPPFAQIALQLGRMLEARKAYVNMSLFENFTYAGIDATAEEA
Sequence of UniProt P45984 (whole entry, looked up): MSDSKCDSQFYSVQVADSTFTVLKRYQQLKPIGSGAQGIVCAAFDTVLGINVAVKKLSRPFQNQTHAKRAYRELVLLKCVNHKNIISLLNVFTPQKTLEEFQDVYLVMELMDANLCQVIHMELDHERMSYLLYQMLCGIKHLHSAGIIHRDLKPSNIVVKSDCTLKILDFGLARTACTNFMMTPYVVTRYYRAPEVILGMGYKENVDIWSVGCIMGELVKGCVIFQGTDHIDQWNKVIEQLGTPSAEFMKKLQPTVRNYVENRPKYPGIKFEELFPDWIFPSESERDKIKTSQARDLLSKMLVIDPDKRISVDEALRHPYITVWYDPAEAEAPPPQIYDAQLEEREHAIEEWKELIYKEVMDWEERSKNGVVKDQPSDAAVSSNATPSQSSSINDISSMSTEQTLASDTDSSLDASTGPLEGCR
Sequence of UniProt Q96BR1 (whole entry, looked up): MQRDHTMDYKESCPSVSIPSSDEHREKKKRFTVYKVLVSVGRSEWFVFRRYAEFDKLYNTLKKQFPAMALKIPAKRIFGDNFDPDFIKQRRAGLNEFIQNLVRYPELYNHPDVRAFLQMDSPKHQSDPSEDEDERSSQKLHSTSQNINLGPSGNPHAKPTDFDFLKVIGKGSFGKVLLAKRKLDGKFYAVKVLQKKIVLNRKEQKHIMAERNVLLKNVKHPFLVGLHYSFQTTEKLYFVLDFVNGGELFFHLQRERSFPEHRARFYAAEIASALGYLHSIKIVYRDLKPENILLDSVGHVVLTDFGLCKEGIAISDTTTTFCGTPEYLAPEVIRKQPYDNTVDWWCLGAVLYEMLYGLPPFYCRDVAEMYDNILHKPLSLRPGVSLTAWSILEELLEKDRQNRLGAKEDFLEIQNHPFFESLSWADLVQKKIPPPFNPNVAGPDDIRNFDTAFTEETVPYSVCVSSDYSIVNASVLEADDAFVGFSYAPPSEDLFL
Sequence of UniProt Q96RR4 (whole entry, looked up): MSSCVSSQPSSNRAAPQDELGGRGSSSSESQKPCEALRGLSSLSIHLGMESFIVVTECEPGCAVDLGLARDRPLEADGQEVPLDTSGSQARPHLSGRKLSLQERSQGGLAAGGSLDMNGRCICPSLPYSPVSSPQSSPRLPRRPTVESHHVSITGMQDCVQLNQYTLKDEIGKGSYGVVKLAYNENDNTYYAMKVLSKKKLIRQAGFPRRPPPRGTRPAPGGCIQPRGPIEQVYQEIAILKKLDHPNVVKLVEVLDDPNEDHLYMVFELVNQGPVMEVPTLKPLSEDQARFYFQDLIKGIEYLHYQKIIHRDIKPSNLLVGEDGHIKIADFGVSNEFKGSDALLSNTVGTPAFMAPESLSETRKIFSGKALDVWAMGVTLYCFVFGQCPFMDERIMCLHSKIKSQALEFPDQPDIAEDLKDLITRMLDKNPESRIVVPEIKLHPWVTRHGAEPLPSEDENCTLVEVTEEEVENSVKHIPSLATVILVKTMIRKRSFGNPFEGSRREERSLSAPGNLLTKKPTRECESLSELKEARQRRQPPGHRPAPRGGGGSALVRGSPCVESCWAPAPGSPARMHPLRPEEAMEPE
Sequence of UniProt Q9P2K8 (whole entry, unmodified, looked up): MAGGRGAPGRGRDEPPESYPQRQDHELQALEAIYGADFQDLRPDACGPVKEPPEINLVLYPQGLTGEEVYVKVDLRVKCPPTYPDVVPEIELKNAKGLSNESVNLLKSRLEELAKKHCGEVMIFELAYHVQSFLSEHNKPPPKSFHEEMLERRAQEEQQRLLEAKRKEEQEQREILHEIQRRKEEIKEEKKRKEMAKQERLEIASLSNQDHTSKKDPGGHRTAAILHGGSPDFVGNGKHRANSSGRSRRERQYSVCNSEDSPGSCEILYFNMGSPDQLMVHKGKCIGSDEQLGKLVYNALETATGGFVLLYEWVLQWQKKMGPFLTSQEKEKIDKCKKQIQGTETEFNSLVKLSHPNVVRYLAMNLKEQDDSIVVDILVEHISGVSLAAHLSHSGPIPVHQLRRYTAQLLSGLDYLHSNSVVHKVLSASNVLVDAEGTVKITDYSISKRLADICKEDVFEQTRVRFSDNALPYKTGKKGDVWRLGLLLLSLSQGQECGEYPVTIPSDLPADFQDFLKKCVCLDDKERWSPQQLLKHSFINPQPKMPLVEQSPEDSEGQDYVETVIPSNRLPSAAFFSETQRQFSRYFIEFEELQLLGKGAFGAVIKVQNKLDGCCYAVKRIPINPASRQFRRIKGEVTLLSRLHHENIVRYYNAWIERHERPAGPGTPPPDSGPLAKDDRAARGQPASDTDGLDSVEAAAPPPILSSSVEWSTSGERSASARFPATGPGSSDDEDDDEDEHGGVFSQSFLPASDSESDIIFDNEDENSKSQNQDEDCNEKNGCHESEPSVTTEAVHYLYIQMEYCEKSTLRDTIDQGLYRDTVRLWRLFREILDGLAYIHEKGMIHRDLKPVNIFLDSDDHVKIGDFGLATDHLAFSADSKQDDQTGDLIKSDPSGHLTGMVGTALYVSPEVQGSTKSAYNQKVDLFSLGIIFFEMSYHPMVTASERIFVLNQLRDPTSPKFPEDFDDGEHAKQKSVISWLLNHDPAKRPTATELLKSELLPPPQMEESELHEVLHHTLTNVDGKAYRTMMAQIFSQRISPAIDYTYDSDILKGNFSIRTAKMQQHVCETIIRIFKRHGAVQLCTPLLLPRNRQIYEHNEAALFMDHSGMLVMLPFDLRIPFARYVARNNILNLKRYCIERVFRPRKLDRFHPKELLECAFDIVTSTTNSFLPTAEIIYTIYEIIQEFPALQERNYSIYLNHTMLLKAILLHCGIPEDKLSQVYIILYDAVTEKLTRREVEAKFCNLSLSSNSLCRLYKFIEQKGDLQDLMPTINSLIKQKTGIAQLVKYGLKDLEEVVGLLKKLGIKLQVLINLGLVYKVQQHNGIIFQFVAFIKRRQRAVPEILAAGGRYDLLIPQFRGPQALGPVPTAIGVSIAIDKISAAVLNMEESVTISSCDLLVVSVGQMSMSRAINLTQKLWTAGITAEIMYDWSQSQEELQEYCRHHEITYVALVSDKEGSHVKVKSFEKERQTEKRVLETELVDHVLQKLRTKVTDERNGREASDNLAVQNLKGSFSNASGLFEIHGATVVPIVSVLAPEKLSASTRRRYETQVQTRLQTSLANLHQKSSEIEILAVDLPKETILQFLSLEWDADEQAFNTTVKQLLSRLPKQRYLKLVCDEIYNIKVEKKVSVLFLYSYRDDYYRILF
Sequence of UniProt P51955 (whole entry, looked up): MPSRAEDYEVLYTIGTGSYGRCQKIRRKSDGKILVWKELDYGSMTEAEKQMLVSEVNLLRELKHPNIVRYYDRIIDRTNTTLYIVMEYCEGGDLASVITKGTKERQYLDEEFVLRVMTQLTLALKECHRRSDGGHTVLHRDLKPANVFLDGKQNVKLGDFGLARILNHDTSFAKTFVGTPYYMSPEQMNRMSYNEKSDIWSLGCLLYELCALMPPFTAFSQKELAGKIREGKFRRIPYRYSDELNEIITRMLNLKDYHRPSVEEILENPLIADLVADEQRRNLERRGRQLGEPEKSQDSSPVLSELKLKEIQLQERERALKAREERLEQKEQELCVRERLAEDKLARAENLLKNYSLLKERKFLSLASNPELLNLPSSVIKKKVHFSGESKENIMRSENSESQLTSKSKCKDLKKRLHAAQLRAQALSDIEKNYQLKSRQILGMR
Sequence of UniProt Q00535 (whole entry, looked up): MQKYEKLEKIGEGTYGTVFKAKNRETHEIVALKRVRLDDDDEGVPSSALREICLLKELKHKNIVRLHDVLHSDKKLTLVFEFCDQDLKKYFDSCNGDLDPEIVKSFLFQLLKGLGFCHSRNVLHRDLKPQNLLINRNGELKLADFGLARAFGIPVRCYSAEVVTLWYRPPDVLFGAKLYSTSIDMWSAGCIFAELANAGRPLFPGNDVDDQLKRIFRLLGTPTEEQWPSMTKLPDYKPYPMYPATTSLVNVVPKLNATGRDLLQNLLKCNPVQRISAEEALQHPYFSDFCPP

Series 1 — tested at: 1 µM; quantity: remaining binding
SMILES: Cc1ccc(NC(=O)c2ccnc(C(F)(F)F)c2)cc1-c1cc(OCCO)nc(N2CCOCC2)c1
Ribosomal protein S6 kinase alpha-6, C-terminal kinase domain (RPS6KA6, Homo sapiens, UniProt Q9UK32); binding, competition with immobilised ligand: 100%
Ribosomal protein S6 kinase alpha-2, N-terminal kinase domain (RPS6KA2, Homo sapiens, UniProt Q15349); binding, competition with immobilised ligand: 100%
Receptor-type tyrosine-protein kinase FLT3, autoinhibited (FLT3, Homo sapiens, UniProt P36888); binding, competition with immobilised ligand: 99%
FGR (Homo sapiens, UniProt P09769); cell-free assay, competition with immobilised ligand: 80%
TTK (Homo sapiens, UniProt P33981); binding, competition with immobilised ligand: 100%
SGK3 (Homo sapiens, UniProt Q96BR1); binding: 100%
NTRK3 (Homo sapiens, UniProt Q16288); binding, competition with immobilised ligand: 98%
FLT1 (Homo sapiens, UniProt P17948); binding, competition with immobilised ligand: 89%
EIF2AK4 (Homo sapiens, UniProt Q9P2K8, S808G); binding: 100%
Aurora kinase B (AURKB, Homo sapiens, UniProt Q96GD4); binding, competition with immobilised ligand: 89%
CDKL1 (Homo sapiens, UniProt Q00532); binding: 100%
RIOK2 (Homo sapiens, UniProt Q9BVS4); binding: 100%
MAPK1 (Homo sapiens, UniProt P28482); binding: 86%
ALK (Homo sapiens, UniProt Q9UM73, L1196M); binding: 98%
PAK2 (Homo sapiens, UniProt Q13177); binding: 100%
TIE1 (Homo sapiens, UniProt P35590); binding, competition with immobilised ligand: 33%

Series 2 — cell line: A-375; tested at: 100 µM; time: 18 h; quantity: viability
O=C(O)c1ccc(-n2nc(-c3ccccc3O)nc2-c2ccccc2O)cc1: 75.9%
N#C/C(=C1/SC[C@@H](c2ccc(Cl)cc2Cl)S1)n1ccnc1: 20.9%
CC(=O)Nc1ccccc1: 94.4%
O=c1cc[nH]c(=S)[nH]1: 103%
CC(C)(S)C(N)C(=O)O (racemic): 109%
C=CCc1cc(OC)c(O)c(C(=O)NCCO)c1: 97.8%
CCN(CC)CCNC(C(=O)OCCC(C)C)c1ccccc1 (stereo not shown): 87.5%
O=C(O)c1ccc(O)c(O)c1: 115%
O=c1[nH]c(=O)n([C@H]2C[C@H](O)[C@@H](CO)O2)cc1F: 42.6%
CO/N=C1\C[C@]2(C[C@@H]3C[C@@H](C/C=C(\C)C[C@@H](C)/C=C/C=C4\CO[C@@H]5[C@H](O)C(C)=C[C@@H](C(=O)O3)[C@]45O)O2)O[C@H](/C(C)=C/C(C)C)[C@H]1C: 11.3%
Cc1ccc(Cl)c(Nc2ccccc2C(=O)O)c1Cl: 58.1%
CCN1CCN(C(=O)N[C@@H](C(=O)N[C@@H]2C(=O)N3C(C(=O)O)=C(CSc4nnnn4C)CS[C@H]23)c2ccc(O)cc2)C(=O)C1=O: 88.8%
CC(=O)O[C@H]1C[C@@]2(C)[C@@H](C[C@@H](O)[C@H]3[C@@]4(C)CC[C@@H](O)[C@@H](C)[C@@H]4CC[C@@]32C)/C1=C(\CCC=C(C)C)C(=O)O: 81.1%
COCCCN1CCC(NC(=O)c2cc(Cl)c(N)c3c2OCC3)CC1: 95.1%
Nc1nc(Cl)nc2c1ncn2[C@@H]1O[C@H](CO)[C@@H](O)[C@@H]1F: 65.4%
CCN1CCN(C(=O)N[C@@H](C(=O)N[C@@H]2C(=O)N3[C@@H]2SC(C)(C)[C@@H]3C(=O)O)c2ccccc2)C(=O)C1=O: 97.7%

Series 3 — read-out: enzyme activity; mode: inhibitor; tested at: 0.5 µM; relative to: control; quantity: remaining activity
Structure (SMILES): COc1cc2ncnc(N3CCN(C(=O)Nc4ccc(Oc5ccccc5)cc4)CC3)c2cc1OC
Protein kinase C beta type, isoform beta-I (PRKCB, Homo sapiens, UniProt P05771): 94.5%
Cyclin-dependent kinase 5, with p25 (CDK5, Homo sapiens, UniProt Q00535): 77.1%
CAMK2D (Homo sapiens, UniProt Q13557): 70.9%
STK11 (Homo sapiens, UniProt Q15831): 105%
IKBKE (Homo sapiens, UniProt Q14164): 98.9%
TGFBR2 (Homo sapiens, UniProt P37173): 102%
PRKCA (Homo sapiens, UniProt P17252): 98%
CAMKK2 (Homo sapiens, UniProt Q96RR4): 81.6%
IKBKB (Homo sapiens, UniProt O14920): 102%
NEK2 (Homo sapiens, UniProt P51955): 81.3%
MAPK9 (Homo sapiens, UniProt P45984): 88.4%
OXSR1 (Homo sapiens, UniProt O95747): 119%

Series 4 — read-out: cell-free assay; method: competition with immobilised ligand; tested at: 1 µM; quantity: remaining binding
SMILES: C[C@@]1(Cc2ccc(C#N)cc2)C(=O)N(c2cc(Cl)cc(Cl)c2)c2ncc(C(=O)NC3(c4nc(C5CCC5)no4)CC3)n21
Tyrosine-protein kinase ABL1, phosphorylated (ABL1, Homo sapiens, UniProt P00519, F317L): 86%
MAP2K5 (Homo sapiens, UniProt Q13163): 100%
COQ8B (Homo sapiens, UniProt Q96D53): 100%
NUAK2 (Homo sapiens, UniProt Q9H093): 100%
PHKG2 (Homo sapiens, UniProt P15735): 100%
EGFR (Homo sapiens, UniProt P00533): 100%
TIE1 (Homo sapiens, UniProt P35590): 100%
MAPK9 (Homo sapiens, UniProt P45984): 100%
PAK3 (Homo sapiens, UniProt O75914): 100%
MAST1 (Homo sapiens, UniProt Q9Y2H9): 100%
EPHB4 (Homo sapiens, UniProt P54760): 100%
FYN (Homo sapiens, UniProt P06241): 89%
CASK (Homo sapiens, UniProt O14936): 100%
PIK3CA (Homo sapiens, UniProt P42336): 87%

For quick reference, copied from above (series 1):
FGR (Homo sapiens, UniProt P09769); cell-free assay, competition with immobilised ligand: 80%
TIE1 (Homo sapiens, UniProt P35590); binding, competition with immobilised ligand: 33%
PAK2 (Homo sapiens, UniProt Q13177); binding: 100%
NTRK3 (Homo sapiens, UniProt Q16288); binding, competition with immobilised ligand: 98%
SGK3 (Homo sapiens, UniProt Q96BR1); binding: 100%
Receptor-type tyrosine-protein kinase FLT3, autoinhibited (FLT3, Homo sapiens, UniProt P36888); binding, competition with immobilised ligand: 99%
RIOK2 (Homo sapiens, UniProt Q9BVS4); binding: 100%
Ribosomal protein S6 kinase alpha-6, C-terminal kinase domain (RPS6KA6, Homo sapiens, UniProt Q9UK32); binding, competition with immobilised ligand: 100%
Aurora kinase B (AURKB, Homo sapiens, UniProt Q96GD4); binding, competition with immobilised ligand: 89%
